# Results of several laboratories.
# Protocols differ between the studies behind these lines. Values joined by “and” are separate records of one study, mostly repeats; a detail may differ. Numbers after ± are the reported error. Where no end group is shown, it is not given here.
# APP: Amyloid-beta precursor protein (APP, Homo sapiens, UniProt P05067)
# ESR1: Estrogen receptor (ESR1, Homo sapiens, UniProt P03372)
# Protein S100-B: Protein S100-B (Homo sapiens, UniProt P04271)
# T1: FMN riboswitch G8A/G9A/G74A/G96A (Lactobacillus plantarum); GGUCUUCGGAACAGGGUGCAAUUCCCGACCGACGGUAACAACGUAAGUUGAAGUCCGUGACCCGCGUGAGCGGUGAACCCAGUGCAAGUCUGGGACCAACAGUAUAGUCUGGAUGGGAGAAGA
# B1: side-chain stapled; chain AACSFRINSLCG (also: sidechain bridge or staple (positions not given here))
Substance,target,test,test system,conditions,scale,quantity,value
NC(=O)C1=CN([C@@H]2O[C@H](COP(=O)(O)OP(=O)(O)OC[C@H]3O[C@@H](n4cnc5c(N)ncnc54)[C@H](O)[C@@H]3O)[C@@H](O)[C@H]2O)C=CC1,"NADH dehydrogenase [ubiquinone] flavoprotein 1, mitochondrial, complex I (NDUFV1, Bos taurus, UniProt P25708)","binding to reduced flavin, substrate",,"pH 7.55, 32 °C, added: rotenone 2.3 µM",,Kd,300 µM
CC[C@H](C)[C@H](NC(=O)[C@@H](NC(=O)[C@@H](N)C(C)C)C(C)C)C(=O)NC(C)(C)C(N)=O,APP,"amyloid aggregation, inhibitor, fluorescence",,"4 µM, 24 h",,inhibition,42%
O=[N+]([O-])c1ccc(CSc2ncnc3c2ncn3[C@@H]2O[C@H](CO)[C@@H](O)[C@H]2O)cc1,"Equilibrative nucleoside transporter 2 (Homo sapiens, UniProt Q14542)","thymidine uptake, inhibitor",A549,"pH 7.4, minor biphasic component, added: 3H-thymidine",,IC50,0.206 ± 0.028 µM
CC[C@H](C)[C@H](NC(=O)[C@@H](NC(=O)[C@H](N)C(C)C)C(C)C)C(=O)N[C@@H](C)C(N)=O,APP,"amyloid aggregation, inhibitor, fluorescence",,"4 µM, 24 h",,inhibition,83.5%
O=S(=O)(C1CC2OC1C(c1ccc(O)cc1)=C2c1ccc(O)cc1)N(CC(F)(F)F)c1ccc(Cl)cc1 (centres unmarked),ESR1,"reporter gene, antagonist",HepG2,added: estradiol 10 nM,"relative to: E2 response, negative is inverse agonism",efficacy,3 ± 2%
COC1=C(OC)C(=O)C(C/C=C(\C)CC/C=C(\C)CC/C=C(\C)CC/C=C(\C)CC/C=C(\C)CC/C=C(\C)CC/C=C(\C)CCC=C(C)C)=C(C)C1=O,"regB (Rhodobacter capsulatus, UniProt D5AKG6)","UV difference spectrum, NaBH4",,"pH 7.6, 22 °C, copurified, expressed in Escherichia coli",,bound compound,0.6 to 0.8 mol/mol protein
O=c1[nH]c(=O)c2nc3ccccc3nc2[nH]1,"T1, FMN riboswitch G8A/G9A/G74A/G96A (Lactobacillus plantarum)",ITC,,"pH 7.5, 25 °C, NaCl 100 mM",,Kd,3.17 µM
O=S(=O)(Nc1ccc(Cl)cc1)C1CC2OC1C(c1ccc(O)cc1)=C2c1ccc(O)cc1 (centres unmarked),ESR1,"reporter gene, antagonist",HepG2,added: estradiol 10 nM,"relative to: E2 response, negative is inverse agonism",efficacy,65 ± 3%
CC1=CC(=O)CC(C)(C)C1=O,"Enoyl-ACP reductase (Thermus thermophilus, UniProt P83818)",,,"24 h, pH 7, 30 °C, aerobic, added: 10 mM substrate, 15 mM NAD(P)H",,conversion,29 to 83%
CSCC[C@H](NC(=O)[C@H](CC(C)C)NC(=O)[C@H](CCCCN)NC(=O)[C@H](CCCCN)NC(=O)[C@H](Cc1c[nH]cn1)NC(=O)[C@H](CCCNC(=N)N)NC(=O)[C@H](CO)NC(=O)[C@@H](NC(=O)[C@H](CO)NC(=O)[C@H](CCC(N)=O)NC(=O)CNC(=O)[C@H](CCCCN)NC(=O)[C@H](CCCCN)NC(=O)[C@H](CO)NC(=O)[C@H](CCCCN)NC(=O)[C@H](CC(C)C)NC(=O)[C@H](Cc1c[nH]cn1)NC(=O)[C@H](CO)NC(=O)[C@H](Cc1ccc(O)cc1)NC(C)=O)[C@@H](C)O)C(=O)N[C@@H](Cc1ccccc1)C(=O)N[C@@H](CCCCN)C(=O)N[C@H](C(=O)N[C@@H](CCC(=O)O)C(N)=O)[C@@H](C)O,Protein S100-B,"binding, NMR line shape analysis",,"35 °C, high salt",,koff,900 ± 180 s⁻¹
O=P(O)(O)O[C@@H]1[C@H](O)[C@H](O)[C@@H](OP(=O)(O)O)[C@H](OP(=O)(O)O)[C@H]1O,"Arf-GAP with SH3 domain, ANK repeat and PH domain-containing protein 1, residues 325-724 (Asap1, Mus musculus, UniProt Q9QWY8)","binding, isothermal titration calorimetry",,"pH 8.0, 25 °C, saturation not achieved",,Kd,350 ± 50 µM
COC(=O)CCC(C(=O)C=Cc1ccc(O)c(OC(F)(F)F)c1)C(=O)C=Cc1ccc(O)c(OC(F)(F)F)c1 (centres unmarked),APP,"Aβ aggregation, SDS-PAGE western blot, refers to: Aβ1-42 75-200 kDa band",,"30 µM, 24 h, 37 °C, added: Aβ1-42 10 µM",relative to: DMSO,band density,981 ± 209%
Cc1ccccc1-c1ccc(C(=O)N2CC3(C)CC2CC(C)(C)C3)cc1 (centres unmarked),"Vasopressin V1a receptor (Mus musculus, UniProt Q62463)",blocker,"CD-1 mouse, rest of brain","subcutaneous, 3 mg/kg, 60 min",,radiotracer uptake reduction,14%
"Ac-GPSLNPFDEED-NH2 (N-acetyl, C-amide)","EHD1 EH domain, mouse",ITC,peptide,"pH 7.0, 20 °C, 0 mM KCl, first titration",higher = stronger binding,Ka,861000 M⁻¹
Cc1ccc(C(=O)C2=C(O)C(=O)N(CC(C)O)C2c2cc(C(F)(F)F)cc(C(F)(F)F)c2)cc1 (centres unmarked),"Protein S100-A10, with annexin A2 (Homo sapiens, UniProt P60903)","S100A10-annexin A2 binding, inhibitor, coimmunoprecipitation",MDA-MB-231 cell lysate,50 µM,,complex loss,~70%
CC1=C(/C=C/C(C)=C/C=C/C(C)=C/C=C/C=C(C)/C=C/C=C(C)/C=C/C2=C(C)C[C@H](O)CC2(C)C)C(C)(C)C[C@H](O)C1,"Glutathione S-transferase P (GSTP1, Homo sapiens, UniProt P09211)",surface plasmon resonance,,25 °C,,Kd,0.19 ± 0.03 µM
"Ac-YESTNPFTAK-NH2 (N-acetyl, C-amide)","EHD1 EH domain, mouse",ITC,peptide,"pH 7.0, 20 °C, 0 mM KCl, first titration",higher = stronger binding,Ka,7030 M⁻¹
CN(Cc1cnc2nc(N)nc(N)c2n1)c1ccc(C(=O)N[C@@H](CCC(=O)O)C(=O)O)cc1,"Reduced folate transporter (SLC19A1, Homo sapiens, UniProt P41440, S313T)","transport, substrate",K562 transfected (K500E),"180 s, 37 °C",,Vmax,0.81 ± 0.14 pmol/mg protein/min
CC(=O)N[C@H]1[C@@H](O[C@H](C)[C@H](NC(=O)CNC(=O)[C@H](C)NC(=O)CNC(=O)[C@H](C)NC(=O)CNC(=O)[C@H](C)NC(=O)CNC(=O)[C@@H](NC(=O)[C@H](C)NC(=O)CN)[C@@H](C)O[C@H]2O[C@H](CO)[C@H](O)[C@H](O)[C@H]2NC(C)=O)C(=O)N[C@H](C(=O)N2CCC[C@H]2C(=O)NCC(=O)N2CCC[C@H]2C(=O)NCC(N)=O)[C@@H](C)O)O[C@H](CO)[C@H](O)[C@@H]1O,"Polypeptide N-acetylgalactosaminyltransferase 4 (GALNT4, Homo sapiens, UniProt Q8N4A0)",substrate,,"concentration not given, wild type",,UDP-GalNAc hydrolysis,~5%
Oc1cc2c(cc1O)CN(C(=S)NCCc1ccc(Cl)cc1)CCC2,"Transient receptor potential cation channel subfamily V member 1 (TRPV1, Homo sapiens, UniProt Q8NER1)","calcium uptake, antagonist",MCF7,added: 2 nM resiniferatoxin,,Emax,104%
CC(=O)N[C@@H](CCC(=O)O)C(=O)N[C@H](C(=O)N[C@@H](CC(C)C)C(=O)N[C@H](C(=O)N[C@@H](CCCNC(=N)N)C(=O)N1CCC[C@H]1C(=O)N[C@@H](CCCCN)C(=O)N1CCC[C@H]1C(=O)N[C@@H](CC(C)C)C(=O)N[C@@H](CC(C)C)C(=O)N[C@@H](CC(C)C)C(=O)N[C@@H](CCCCN)C(=O)N[C@@H](CC(C)C)C(=O)N[C@@H](CC(C)C)C(=O)N[C@@H](CCCCN)C(=O)N[C@@H](CO)C(=O)N[C@H](C(=O)NCC(=O)N[C@@H](C)C(=O)N[C@@H](Cc1ccc(O)cc1)C(N)=O)C(C)C)C(C)C)[C@@H](C)O,Protein S100-B,"binding, NMR line shape, Kd from ITC",,"35 °C, low salt",,koff,140 ± 30 s⁻¹
collagenase,"CNGA3 (Homo sapiens, UniProt Q16281)","ion current, inside-out patch clamp",Xenopus oocytes,"100 nM, protease-treated channels",,Hill coefficient for cGMP,2.3
CC[C@H](C)[C@H](NC(=O)[C@H](Cc1c[nH]c2ccccc12)NC(=O)[C@@H]1CCCN1C(=O)[C@@H]1CCCN1C(=O)[C@H](Cc1ccccc1)NC(=O)[C@H](CO)NC(=O)CNC(=O)[C@H](CCCNC(=N)N)NC(=O)[C@H](CCCNC(=N)N)NC(=O)[C@H](CCCNC(=N)N)NC(=O)[C@H](CCCNC(=N)N)NC(=O)[C@H](CCCNC(=N)N)NC(=O)[C@@H](N)CCCNC(=N)N)C(=O)N[C@@H](CCC(N)=O)C(=O)N[C@@H](CCC(N)=O)C(=O)N[C@H](C(=O)N[C@@H](CCCNC(=N)N)C(=O)N[C@H](C(=O)O)C(C)C)[C@@H](C)O,"Disks large homolog 4, PDZ3 domain (Homo sapiens, UniProt P78352)","binding, surface plasmon resonance",,"pH 7.5, 25 °C",,kon,29000 M⁻¹ s⁻¹
B1,"Prolyl endopeptidase (PREP, Homo sapiens, UniProt P48147)",enzyme activity,,"200 µM, 37 °C",relative to: FAPα over PREP,selectivity ratio,6 fold
CCC(CC)CSc1nc2c([nH]1)c(=S)n(C)c(=O)n2C,"Androgen receptor (AR, Homo sapiens, UniProt P10275)","reporter gene, antagonist, PSA-luciferase",HeLa-A6,"10 µM, 24 h, added: 5 nM dihydrotestosterone",relative to: maximal activity,remaining activity,96%
COc1cc2ncnc(Nc3ccc(F)c(Cl)c3)c2cc1OCCCN1CCN(CCC(=O)NCCCCCCCCOc2cccc3c2C(=O)N(C2CCC(=O)N(C)C2=O)C3=O)CC1 (centres unmarked),"Epidermal growth factor receptor (EGFR, Homo sapiens, UniProt P00533, L858R)",western blot,H3255,"10 µM, 2 h pretreatment",,degrader-induced degradation,inhibited
O=CCO,aldehyde oxidase F10 (Pseudomonas sp. MX-058),"substrate, peroxidase-coupled H2O2",,"pH 7.0, 30 °C, added: O2 co-substrate",,Km,29.8 mM
CTVF,"Protein farnesyltransferase (Rattus norvegicus, UniProt Q02293+Q04631)","substrate, stopped-flow fluorescence",peptide,"pH 7.8, 25 °C, single turnover",,farnesylation rate constant,0.4 ± 0.04 s⁻¹
O=S(=O)(O)c1cc(N=C=S)ccc1CCc1ccc(N=C=S)cc1S(=O)(=O)O,"SLC4A1 (Homo sapiens, UniProt P02730)",chloride exchange,human resealed ghosts,0 °C,relative to: inward gradient over none,ID50 ratio,0.94 and 1.17 and 1.05 and 2.17 and 1.84 and 1.62 and 0.75
WLRRYLENGK,"Endoplasmic reticulum aminopeptidase 2 (ERAP2, Homo sapiens, UniProt Q6P179)","substrate, RP-HPLC",peptide,"pH 7.0, 37 °C, added: 20 µM precursor",,trimming rate,2 ± 0.04 pmol/nmol/s
O=C(O)Cc1ccc(-c2ccccc2)cc1,"Caspase-4 (CASP4, Homo sapiens, UniProt P49662)",,,"33 µM, added: LEHD substrate",relative to: solvent control,remaining activity,8.11%
Cc1cc(NC(=O)c2cccc(NC(=O)/C=C/CN(C)C)c2)ccc1Nc1nccc(-c2cccnc2)n1,"Phosphatidylinositol 5-phosphate 4-kinase type-2 gamma (PIP4K2C, Homo sapiens, UniProt Q8TBX8)","ATP-biotin probe labeling, KiNativ",A-375,"1 µM, 3 h, first of two sites",,inhibition,1.9%

# For quick reference, copied from above:
Substance,target,test,test system,conditions,scale,quantity,value
collagenase,"CNGA3 (Homo sapiens, UniProt Q16281)","ion current, inside-out patch clamp",Xenopus oocytes,"100 nM, protease-treated channels",,Hill coefficient for cGMP,2.3
CC[C@H](C)[C@H](NC(=O)[C@H](Cc1c[nH]c2ccccc12)NC(=O)[C@@H]1CCCN1C(=O)[C@@H]1CCCN1C(=O)[C@H](Cc1ccccc1)NC(=O)[C@H](CO)NC(=O)CNC(=O)[C@H](CCCNC(=N)N)NC(=O)[C@H](CCCNC(=N)N)NC(=O)[C@H](CCCNC(=N)N)NC(=O)[C@H](CCCNC(=N)N)NC(=O)[C@H](CCCNC(=N)N)NC(=O)[C@@H](N)CCCNC(=N)N)C(=O)N[C@@H](CCC(N)=O)C(=O)N[C@@H](CCC(N)=O)C(=O)N[C@H](C(=O)N[C@@H](CCCNC(=N)N)C(=O)N[C@H](C(=O)O)C(C)C)[C@@H](C)O,"Disks large homolog 4, PDZ3 domain (Homo sapiens, UniProt P78352)","binding, surface plasmon resonance",,"pH 7.5, 25 °C",,kon,29000 M⁻¹ s⁻¹
B1,"Prolyl endopeptidase (PREP, Homo sapiens, UniProt P48147)",enzyme activity,,"200 µM, 37 °C",relative to: FAPα over PREP,selectivity ratio,6 fold
